Results gathered from unrelated publications.
Compare with care: the assays were run in different laboratories. Numbers after ± are the reported error.
Nr3c1: Glucocorticoid receptor (Nr3c1, Rattus norvegicus, UniProt P06536)
Sequence of UniProt P06536 (whole entry, looked up): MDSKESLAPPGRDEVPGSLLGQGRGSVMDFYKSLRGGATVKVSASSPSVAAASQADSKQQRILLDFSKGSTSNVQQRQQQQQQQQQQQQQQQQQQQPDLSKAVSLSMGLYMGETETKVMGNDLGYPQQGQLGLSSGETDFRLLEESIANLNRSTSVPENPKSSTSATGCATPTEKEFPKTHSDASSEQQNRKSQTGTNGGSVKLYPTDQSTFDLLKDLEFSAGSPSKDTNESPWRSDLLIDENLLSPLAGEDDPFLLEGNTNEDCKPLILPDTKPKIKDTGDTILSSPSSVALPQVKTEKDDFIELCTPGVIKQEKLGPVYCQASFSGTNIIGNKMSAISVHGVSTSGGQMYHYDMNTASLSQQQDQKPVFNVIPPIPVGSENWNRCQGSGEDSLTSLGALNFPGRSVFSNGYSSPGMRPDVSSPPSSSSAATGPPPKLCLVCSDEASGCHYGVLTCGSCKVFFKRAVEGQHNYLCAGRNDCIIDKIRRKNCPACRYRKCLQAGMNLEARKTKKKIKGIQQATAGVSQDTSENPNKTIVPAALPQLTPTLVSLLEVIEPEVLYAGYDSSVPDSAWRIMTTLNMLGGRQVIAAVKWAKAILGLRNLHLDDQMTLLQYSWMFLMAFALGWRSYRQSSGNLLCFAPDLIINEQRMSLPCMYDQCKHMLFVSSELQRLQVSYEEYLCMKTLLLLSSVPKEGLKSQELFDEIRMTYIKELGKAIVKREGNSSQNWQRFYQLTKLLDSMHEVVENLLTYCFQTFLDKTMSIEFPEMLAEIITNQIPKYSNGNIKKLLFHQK
EPHX2: Bifunctional epoxide hydrolase 2 (EPHX2, Homo sapiens, UniProt P34913)
Sequence of UniProt P34913 (whole entry, looked up): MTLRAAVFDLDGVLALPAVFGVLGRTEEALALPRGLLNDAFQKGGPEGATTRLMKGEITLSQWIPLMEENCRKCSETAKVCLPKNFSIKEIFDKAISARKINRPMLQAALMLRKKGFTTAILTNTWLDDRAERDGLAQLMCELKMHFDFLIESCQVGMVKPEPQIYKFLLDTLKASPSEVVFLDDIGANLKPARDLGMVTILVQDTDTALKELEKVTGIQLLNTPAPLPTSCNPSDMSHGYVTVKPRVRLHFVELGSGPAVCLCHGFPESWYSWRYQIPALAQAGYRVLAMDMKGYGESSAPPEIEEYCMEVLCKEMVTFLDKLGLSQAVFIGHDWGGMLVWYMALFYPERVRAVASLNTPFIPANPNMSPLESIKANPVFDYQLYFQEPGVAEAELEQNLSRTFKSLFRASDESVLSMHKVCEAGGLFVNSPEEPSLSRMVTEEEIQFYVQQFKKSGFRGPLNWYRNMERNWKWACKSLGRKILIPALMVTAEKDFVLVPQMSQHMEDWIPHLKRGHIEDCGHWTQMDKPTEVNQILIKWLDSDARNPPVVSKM
Sequence of UniProt P15431 (whole entry, looked up): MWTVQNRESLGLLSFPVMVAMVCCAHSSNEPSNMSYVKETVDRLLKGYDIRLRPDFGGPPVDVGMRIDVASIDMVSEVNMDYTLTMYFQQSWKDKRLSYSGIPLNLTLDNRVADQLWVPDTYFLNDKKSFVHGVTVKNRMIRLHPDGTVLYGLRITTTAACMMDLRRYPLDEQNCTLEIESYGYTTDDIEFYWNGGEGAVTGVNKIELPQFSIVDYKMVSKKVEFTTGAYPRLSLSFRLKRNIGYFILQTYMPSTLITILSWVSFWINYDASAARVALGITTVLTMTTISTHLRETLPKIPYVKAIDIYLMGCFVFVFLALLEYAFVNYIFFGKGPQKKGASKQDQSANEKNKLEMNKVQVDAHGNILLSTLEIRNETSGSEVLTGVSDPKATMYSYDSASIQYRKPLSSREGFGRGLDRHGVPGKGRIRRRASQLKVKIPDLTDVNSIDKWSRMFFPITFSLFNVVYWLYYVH
Sequence of UniProt O00748 (whole entry, looked up): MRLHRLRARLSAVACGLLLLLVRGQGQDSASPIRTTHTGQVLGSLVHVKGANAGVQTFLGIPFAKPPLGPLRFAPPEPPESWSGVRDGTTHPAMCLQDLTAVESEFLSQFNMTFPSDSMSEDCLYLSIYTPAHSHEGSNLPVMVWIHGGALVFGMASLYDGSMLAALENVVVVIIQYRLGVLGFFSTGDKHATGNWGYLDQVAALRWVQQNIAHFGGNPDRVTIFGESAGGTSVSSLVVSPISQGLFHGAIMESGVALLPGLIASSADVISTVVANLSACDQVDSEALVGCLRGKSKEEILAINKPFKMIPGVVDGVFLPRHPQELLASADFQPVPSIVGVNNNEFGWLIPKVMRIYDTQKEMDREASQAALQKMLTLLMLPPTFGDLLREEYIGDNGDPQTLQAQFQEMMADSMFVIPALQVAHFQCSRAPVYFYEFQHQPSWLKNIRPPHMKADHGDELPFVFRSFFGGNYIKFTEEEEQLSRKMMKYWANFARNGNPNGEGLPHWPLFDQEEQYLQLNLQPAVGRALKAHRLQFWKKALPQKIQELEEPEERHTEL
Sequence of UniProt Q15910 (whole entry, looked up): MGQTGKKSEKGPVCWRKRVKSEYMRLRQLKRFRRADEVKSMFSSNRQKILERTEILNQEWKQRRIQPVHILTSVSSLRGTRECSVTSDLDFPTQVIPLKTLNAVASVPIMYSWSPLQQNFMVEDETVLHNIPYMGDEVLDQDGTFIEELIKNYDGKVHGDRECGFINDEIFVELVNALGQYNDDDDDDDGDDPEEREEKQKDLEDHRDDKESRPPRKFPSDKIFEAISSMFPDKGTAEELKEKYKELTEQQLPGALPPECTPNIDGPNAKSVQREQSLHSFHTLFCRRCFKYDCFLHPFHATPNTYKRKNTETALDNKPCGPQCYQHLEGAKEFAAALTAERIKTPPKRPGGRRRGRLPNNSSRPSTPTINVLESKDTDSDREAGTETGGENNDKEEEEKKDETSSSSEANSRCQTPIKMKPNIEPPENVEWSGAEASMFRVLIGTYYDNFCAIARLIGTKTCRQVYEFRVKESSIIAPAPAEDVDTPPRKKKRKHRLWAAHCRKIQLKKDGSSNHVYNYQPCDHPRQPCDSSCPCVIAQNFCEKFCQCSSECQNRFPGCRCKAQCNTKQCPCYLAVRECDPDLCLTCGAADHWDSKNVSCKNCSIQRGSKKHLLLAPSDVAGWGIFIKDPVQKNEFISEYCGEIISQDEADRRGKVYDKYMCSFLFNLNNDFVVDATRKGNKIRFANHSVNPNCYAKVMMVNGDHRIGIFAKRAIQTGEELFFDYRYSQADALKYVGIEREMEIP
Sequence of UniProt P08908 (whole entry, looked up): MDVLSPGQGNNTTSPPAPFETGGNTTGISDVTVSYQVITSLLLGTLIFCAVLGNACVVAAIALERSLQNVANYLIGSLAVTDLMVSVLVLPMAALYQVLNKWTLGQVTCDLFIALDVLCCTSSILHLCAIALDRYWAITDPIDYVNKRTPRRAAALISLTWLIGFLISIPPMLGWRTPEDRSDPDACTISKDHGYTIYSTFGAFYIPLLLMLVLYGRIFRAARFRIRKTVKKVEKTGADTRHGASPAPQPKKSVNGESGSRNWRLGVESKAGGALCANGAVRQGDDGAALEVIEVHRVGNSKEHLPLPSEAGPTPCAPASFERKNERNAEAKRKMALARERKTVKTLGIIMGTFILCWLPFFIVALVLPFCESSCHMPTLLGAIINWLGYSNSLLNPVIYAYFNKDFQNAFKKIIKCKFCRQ
Sequence of UniProt P04062 (whole entry, unmodified, looked up): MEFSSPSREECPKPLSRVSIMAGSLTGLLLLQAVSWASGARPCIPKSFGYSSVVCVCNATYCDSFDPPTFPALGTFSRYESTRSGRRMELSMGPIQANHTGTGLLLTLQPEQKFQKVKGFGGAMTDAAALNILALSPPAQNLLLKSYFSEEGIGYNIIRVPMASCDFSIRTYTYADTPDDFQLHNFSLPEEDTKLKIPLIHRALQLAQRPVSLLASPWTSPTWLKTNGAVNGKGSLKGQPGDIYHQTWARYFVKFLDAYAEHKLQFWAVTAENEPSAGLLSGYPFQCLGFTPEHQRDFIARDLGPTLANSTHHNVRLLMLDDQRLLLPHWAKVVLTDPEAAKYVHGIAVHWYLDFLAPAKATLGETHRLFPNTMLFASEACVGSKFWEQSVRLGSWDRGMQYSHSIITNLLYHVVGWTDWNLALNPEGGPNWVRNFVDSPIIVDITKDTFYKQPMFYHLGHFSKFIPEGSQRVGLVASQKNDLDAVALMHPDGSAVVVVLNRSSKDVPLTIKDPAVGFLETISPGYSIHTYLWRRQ
Sequence of UniProt P32249 (whole entry, looked up): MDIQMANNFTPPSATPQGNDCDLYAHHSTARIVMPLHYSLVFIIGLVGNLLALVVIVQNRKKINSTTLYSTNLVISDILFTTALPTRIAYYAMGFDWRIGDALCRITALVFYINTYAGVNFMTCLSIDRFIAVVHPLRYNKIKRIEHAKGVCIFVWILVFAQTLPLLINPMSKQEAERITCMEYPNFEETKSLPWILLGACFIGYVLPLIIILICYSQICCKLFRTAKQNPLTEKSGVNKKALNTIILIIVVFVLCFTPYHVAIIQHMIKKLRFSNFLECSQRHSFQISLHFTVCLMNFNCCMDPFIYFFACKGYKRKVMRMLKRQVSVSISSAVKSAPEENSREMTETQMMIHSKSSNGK
Sequence of UniProt P17706 (whole entry, looked up): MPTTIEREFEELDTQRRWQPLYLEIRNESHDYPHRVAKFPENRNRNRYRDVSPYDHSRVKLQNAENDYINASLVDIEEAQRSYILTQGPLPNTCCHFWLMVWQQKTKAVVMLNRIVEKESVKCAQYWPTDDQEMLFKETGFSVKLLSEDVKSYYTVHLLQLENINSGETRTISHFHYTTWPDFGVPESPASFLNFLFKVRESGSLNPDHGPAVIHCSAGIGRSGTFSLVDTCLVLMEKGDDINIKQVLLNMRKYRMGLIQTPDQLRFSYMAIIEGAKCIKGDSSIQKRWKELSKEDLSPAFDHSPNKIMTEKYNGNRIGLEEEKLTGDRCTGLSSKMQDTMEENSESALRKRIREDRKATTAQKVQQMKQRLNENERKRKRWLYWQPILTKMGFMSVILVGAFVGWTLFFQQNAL

`Cn1c(=O)c2[nH]c(CCc3ccccc3)nc2n(C)c1=O` has a remaining activity of 94% (Nr3c1; reporter gene, antagonist, MMTV-luciferase; T47D/A1-2; 10 µM, 24 h, added: 5 nM dexamethasone; relative to: maximal activity).
For `COc1cc(C2CC(=O)Nc3nc(N)[nH]c(=O)c32)ccc1O` (stereo not shown), the TΔS was -10.1 kcal/mol (uncharacterized protein (Leishmania donovani, UniProt A0A3Q8IA09); competitive ITC; added: aspartate 60 µM).
Under “lipophilic ligand efficiency”, `CC12CC3CC(C)(C1)CC(NC(=O)Nc1ccc(C(=O)N4CCCC(C(N)=O)C4)cc1Cl)(C3)C2` (stereo not shown) is recorded as 6.56 (EPHX2).
The kon of `CSc1cc(C)[nH]c(=O)c1CNC(=O)c1cc(Cl)c2c(c1C)OC(C)(C1CCC(N(C)C)CC1)O2` (stereo not shown) is reported as 910000 M⁻¹ s⁻¹ (Histone-lysine N-methyltransferase EZH2 (EZH2, Homo sapiens, UniProt Q15910); activated enzyme).
With `CC(C)CN(CC(C)C)C(=O)/C=C/C=C/c1ccc2c(c1)OCO2` the Hill coefficient was 1.5 ± 0.2 (Gabrb1/Gabra1 (Rattus norvegicus, UniProt P15431+P62813); GABA current potentiation, positive modulator, two-electrode voltage clamp; Xenopus oocytes expressing α1β1; added: GABA EC3-7).
For `O=C([O-])CN(CCN(CC(=O)[O-])Cc1cc(CCC(=O)NCCCCCC(=O)NCCCC[C@H](NC(=O)N[C@@H](CCC(=O)O)C(=O)O)C(=O)O)ccc1O)Cc1cc(CCC(=O)O)ccc1[O-].[68Ga+3]`, the tumour-to-background ratio was 47.5 (Glutamate carboxypeptidase 2 (FOLH1, Homo sapiens, UniProt Q04609); PET/CT; prostate cancer patients, primary prostate lesions; mean, lesion SUVmax; relative to: gluteal muscle SUVmean).
`C[C@@]1(CCCN2CCN(c3ccccn3)CC2)Cc2cc(Cl)ccc2C1=O` gave a Hill slope of -0.58 ± 0.06 (5-hydroxytryptamine receptor 1A (HTR1A, Homo sapiens, UniProt P08908); binding, radioligand binding; HEK293, membranes; added: [3H]8-OH-DPAT).
The Hill slope of `O=C(Nc1ccc(C(=O)Nc2ccc(C(=O)Nc3ccc(S(=O)(=O)O)c4cc(S(=O)(=O)O)cc(S(=O)(=O)O)c34)cc2)cc1)Nc1ccc(C(=O)Nc2ccc(C(=O)Nc3ccc(S(=O)(=O)O)c4cc(S(=O)(=O)O)cc(S(=O)(=O)O)c34)cc2)cc1` is reported as 2.6 ± 0.1 (Neutrophil elastase (ELANE, Homo sapiens, UniProt P08246); enzyme activity, inhibitor, chromogenic substrate hydrolysis; pH 7.4, 37 °C, 100 mM NaCl, added: substrate S-1384).
For `COC(=O)c1ccc(N2CCN(C(=O)C3CC3)C(C)C2)cc1` (stereo not shown), “potency relative to JH I” read 140 fold lower (Methoprene-tolerant protein, with Taiman (Drosophila melanogaster, UniProt O44118); reporter gene, agonist; HEK-293T, Drosophila Met and Tai transfected; 24 h; relative to: JH I).
Under activation, `CCOC(=O)CC[C@@H](NC(=O)[C@@H](NC(=O)c1cn(-c2ccccc2)nc1-c1cccc(C)c1)C(C)C)C(=O)OCC` is recorded as “inactive” (Nucleotide-binding oligomerization domain-containing protein 2 (NOD2, Homo sapiens, UniProt Q9HC29); NF-kB reporter gene, agonist; HEK-Blue cells expressing NOD2; 10 µM, 16 h).
For `CC(C)(C)CCN1C[C@@H]2[C@@H](CNC(=O)c3cc(Cl)cc(Cl)c3)[C@@H]2C1.Cl`, the activation V1/2 was -5.91 ± 2.28 mV (Voltage-dependent L-type calcium channel subunit alpha-1C (CACNA1C, Oryctolagus cuniculus, UniProt P15381); whole-cell patch clamp; HEK-293T, transfected; 5 µM).
`O=S1(=O)O[C@@H]2[C@H](CO)[C@@H](O)[C@H](O)[C@@H](O)[C@@H]2O1` gave a kinact of 0.00025 s⁻¹ (Lysosomal acid glucosylceramidase (GBA1, Homo sapiens, UniProt P04062, R534H); enzyme activity, inhibitor; pH 5.2).
For `O=C(Nc1cc(Cl)cc(Cl)c1)Nc1ccc2[nH]ccc2c1`, “maximum ThT fluorescence” read 6 ± 2% (Alpha-synuclein (SNCA, Homo sapiens, UniProt P37840); fibril formation, ThT fluorescence kinetics; 100 µM, α-syn 2 µM, plateau phase; relative to: DMSO vehicle).
The remaining activity of `CC1(C)CCN(Cc2ccc(C(=O)NC[C@]3(O)CCCN(c4cc(NCc5ccccc5)ncn4)C3)c(O)c2)CC1` is reported as 95% (Mast/stem cell growth factor receptor Kit (KIT, Homo sapiens, UniProt P10721); kinase activity, radiometric; 10 µM, added: 10 µM ATP).
For `Cn1c(=S)c2[nH]c(SCCc3ccccc3)nc2n(C)c1=O`, the remaining activity was 78% (Nr3c1; reporter gene, antagonist, MMTV-luciferase; T47D/A1-2; 10 µM, 24 h, added: 5 nM dexamethasone; relative to: maximal activity).
Under “lipophilic ligand efficiency”, `CC12CC3CC(C)(C1)CC(NC(=O)Nc1ccc(C(=O)N4CCC(NC(=O)C5CC5)CC4)cc1)(C3)C2` is recorded as 6.33 (EPHX2).
With `CC(=O)NCC(=O)N[C@@H](CC(=O)O)C(=O)N[C@@H](Cc1ccc(O)cc1)C(=O)N[C@@H](CO)C(=O)N[C@@H](Cc1c[nH]cn1)C(=O)N[C@H]1CSSC[C@@H](C(=O)N[C@H](C(=O)N[C@@H](Cc2ccc(O)cc2)C(=O)N2CCC[C@H]2C(=O)N[C@@H](CC(=O)O)C(=O)N2CCC[C@H]2C(=O)N[C@@H](CCC(=O)O)C(=O)NCC(=O)NCC(=O)NCC(N)=O)[C@@H](C)O)NC(=O)[C@H](CCCCN)NC(=O)[C@H](Cc2c[nH]c3ccccc23)NC(=O)[C@H](Cc2c[nH]c3ccccc23)NC(=O)[C@@H]2CCCN2C(=O)[C@H](Cc2ccc(O)cc2)NC(=O)[C@H](Cc2ccc(O)cc2)NC(=O)[C@H](CCCNC(=N)N)NC(=O)[C@H](CC(C)C)NC(=O)[C@@H]2CCCN2C(=O)[C@H](CO)NC1=O` the maximal inhibition was 45 ± 5% (Angiotensin-converting enzyme 2 (Ace2, Mus musculus, UniProt Q8R0I0); enzyme activity, inhibitor; mouse heart homogenate; 4 h).
The remaining activity of `CCCCCCSc1nc2c([nH]1)c(=S)n(C)c(=S)n2C` is reported as 103% (Nr3c1; reporter gene, antagonist, MMTV-luciferase; T47D/A1-2; 10 µM, 24 h, added: 5 nM dexamethasone; relative to: maximal activity).
For `COc1cc(N2CCN(C(=O)CN)CC2)ccc1Nc1ncc(Cl)c(Nc2ccccc2P(C)(C)=O)n1`, the Dmax was 76% (ALK tyrosine kinase receptor, EML4-ALK fusion (ALK, Homo sapiens, UniProt Q9UM73); degrader; NCI-H3122; 0.5 µM).
For `CC(C)CC(NC(=O)C(NC(=O)NC(C(=O)O)C(C)C)C1CCNC(=N)N1)C(=O)NCCCNC(C(=O)O)C(OC1OC(CN)C(O)C1O)C1OC(n2ccc(=O)[nH]c2=O)C(O)C1O` (stereo not shown), the ΔS was 14.7 ± 2.5 cal/mol/K (Phospho-N-acetylmuramoyl-pentapeptide-transferase (mraY, Aquifex aeolicus, UniProt O66465, F262A); ITC; F262A mutant).
For `N[C@@H](CCC(=O)N[C@@H](CS[Se]Cc1ccc(-c2cccc(C(O)c3ccc(Cl)c(Cl)c3)c2)cc1)C(=O)NCC(=O)O)C(=O)O` (stereo partly shown), the selectivity ratio was greater than 20 fold (Tyrosine-protein phosphatase non-receptor type 2 (PTPN2, Homo sapiens, UniProt P17706); relative to: IC50 PTPN2 over STEP).
The koff of `O=C(Nc1ccc(C(F)(F)F)nc1)N1CCC(Cc2cccc(Oc3ccc(C(F)(F)F)cn3)c2)CC1` is reported as 6 s⁻¹ (EPHX2).
With `CCCCCCCC(=O)Nc1ccc(C)nc1OC` the specific activity was 110 pmol/min/µg (Cocaine esterase (CES2, Homo sapiens, UniProt O00748); substrate; 50 µM, pH 8, 37 °C, enzyme purity 4%).
With `O=C(/C=C/c1ccc(Cl)cc1)N1CCC2(CC1)CN(Cc1ccc(Cl)c(Cl)c1)C(=O)O2` the Schild slope was 1.4 (G-protein coupled receptor 183 (GPR183, Homo sapiens, UniProt P32249); GTPγS binding, antagonist; CHO membranes expressing EBI2).
For `N#CCCN1CCN(C(=S)c2ccc(-c3cccc(C(F)(F)F)c3)o2)CC1`, the Emax was 101% (Atrial natriuretic peptide receptor 2 (NPR2, Homo sapiens, UniProt P20594); HTRF, measured: cGMP; HEK293 overexpressing GC-B; added: subthreshold CNP; relative to: saturating CNP).

For quick reference, copied from above:
With `CCCCCCCC(=O)Nc1ccc(C)nc1OC` the specific activity was 110 pmol/min/µg (Cocaine esterase (CES2, Homo sapiens, UniProt O00748); substrate; 50 µM, pH 8, 37 °C, enzyme purity 4%).
`O=S1(=O)O[C@@H]2[C@H](CO)[C@@H](O)[C@H](O)[C@@H](O)[C@@H]2O1` gave a kinact of 0.00025 s⁻¹ (Lysosomal acid glucosylceramidase (GBA1, Homo sapiens, UniProt P04062, R534H); enzyme activity, inhibitor; pH 5.2).
